Experimental data of several laboratories.
A part holds a random share of what one study measured. “And” joins repeats or separate records; there may be more than shown. Positions count from the first letter of the parent shown.

Series 1 — method: DHFR PCA, deep sequencing; medium: yeast; with: (+)-ABA 200 µM; relative to: wild-type fitted maximum; direction: higher = stronger binding
Target: ABI1, truncated, D143A, DHFR fusion (Arabidopsis thaliana)
Notes: methotrexate growth selection, single substitutions
Starting sequence: PYL1, truncated, DHFR fusion (Arabidopsis thaliana); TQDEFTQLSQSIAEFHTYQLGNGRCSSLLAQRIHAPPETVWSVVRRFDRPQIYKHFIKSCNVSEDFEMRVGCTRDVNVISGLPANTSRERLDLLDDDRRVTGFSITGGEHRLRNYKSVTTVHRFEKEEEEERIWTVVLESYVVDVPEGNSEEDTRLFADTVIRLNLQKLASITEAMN; partner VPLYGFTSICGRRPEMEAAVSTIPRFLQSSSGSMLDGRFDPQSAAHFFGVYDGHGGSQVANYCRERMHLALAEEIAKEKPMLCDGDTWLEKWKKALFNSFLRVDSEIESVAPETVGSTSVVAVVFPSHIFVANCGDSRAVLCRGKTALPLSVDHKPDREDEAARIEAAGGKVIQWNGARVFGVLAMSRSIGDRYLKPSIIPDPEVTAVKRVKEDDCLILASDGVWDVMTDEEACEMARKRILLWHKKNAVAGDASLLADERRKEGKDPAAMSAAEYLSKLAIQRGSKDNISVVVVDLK
`S11F`: “relative binding score” 92.3%.
`T154R`: “relative binding score” 0.452%.
For `V62E`, “relative binding score” read 25.7%.
Under “relative binding score”, `Y115D` is recorded as -15%.
For `P146D`, “relative binding score” read 10.7%.
`R69N` — result for “relative binding score”: 98.5%.
`F56A`: “relative binding score” 33.1%.

Series 2 — target: CCNA2, cyclin fold, Cln2 fusion (human); method: yeast growth competition, sequencing; medium: yeast; notes: strong parent motif; relative to: not given; direction: higher = stronger binding
Starting sequence: CCP110 docking peptide (human); EKVKRRLDLDIDG; partner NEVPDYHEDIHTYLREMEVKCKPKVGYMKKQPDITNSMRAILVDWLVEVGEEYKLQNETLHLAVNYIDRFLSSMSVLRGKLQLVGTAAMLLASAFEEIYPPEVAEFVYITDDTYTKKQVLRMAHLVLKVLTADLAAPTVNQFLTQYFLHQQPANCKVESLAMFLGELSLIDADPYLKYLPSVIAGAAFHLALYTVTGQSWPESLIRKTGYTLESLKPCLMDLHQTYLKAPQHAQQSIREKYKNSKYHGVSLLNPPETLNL
`L9F`: “normalised enrichment score” 5.84.
Under “normalised enrichment score”, `L7A` is recorded as -0.46.
For `D12A`, “normalised enrichment score” read 3.95.
`K4A`: “normalised enrichment score” 3.03.
`D10A` — result for “normalised enrichment score”: 3.62.
`G13A` — result for “normalised enrichment score”: 4.46.
For `K2A`, “normalised enrichment score” read 2.7.

Series 3 — method: RNA Bind-n-Seq; molecule type: RNA; medium: in vitro; tested at: 365 nM; relative to: no-protein control; direction: higher = stronger binding
Target: RNA binding protein fox-1 homolog 2, RRM domain, GST-SBP tag (RBFOX2, Homo sapiens, UniProt O43251-10, residues 100-194)
Notes: natural RNA segment, single round, ends assumed
Construct (chain): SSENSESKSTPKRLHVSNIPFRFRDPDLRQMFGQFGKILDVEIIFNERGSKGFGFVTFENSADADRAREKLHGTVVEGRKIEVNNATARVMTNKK
For `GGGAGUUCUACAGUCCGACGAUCCAACUGUCCUAAGGUCACUUCCCAGCCAGCUUAGGAUCUUCAGCAUUUUUAAGAGCUGAAGCUCCCUCUUGCCCUUCUUGUCUACUCCUCACUGCCAGUUGGGGCCUAGGUGGAAUUCUCGGGUGCCAA`, “RBNS enrichment (R)” read 0.636.
Under “RBNS enrichment (R)”, `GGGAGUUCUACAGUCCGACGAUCCAAAGGUAAACACAGAUUGUAUCUUUUUUAAUGGUACGGCAUAAAAAAAUAACCCUAAAGUGAAGUGGCUCUAUACUGUUUUAUAGAGUACUUUAACGUGUAUAGAUAUCUGGAAUUCUCGGGUGCCAA` is recorded as 0.409.
For `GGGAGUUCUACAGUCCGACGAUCACAUUUCAUAAUGUUGGCACUGGAGUAUUAUAAGAGAUCAUGAAUGUUUCCUUAAUUAUCAUGGCAAGAUUACCUCACGUUCAGUAUAGUUUAGUUUUGUGUGUAUCUUAUGGAAUUCUCGGGUGCCAA`, “RBNS enrichment (R)” read 0.652.
Under “RBNS enrichment (R)”, `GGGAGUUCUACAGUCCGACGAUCACUAAAAUCAUUUGUCUAAAAAUUUAAGUUGUUUUCAAAUAAAAAUUAAAAUGCAUUUCUGAUAUGCCUGAUUGUGUUGCCUCCAGCUUUUUUUGCUCUCUAUGAGUGACUGGAAUUCUCGGGUGCCAA` is recorded as 0.392.
`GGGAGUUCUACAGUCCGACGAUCCAGUAGUUUUGUUUUAACAUGGUCUUUUUCAACUUUGUUUCCUGUUUAACUACAGAUGACUUCUGUUGUAGACUCACAAGUUUAACUGUUGUAUUAUAACAGUAUUACAUUGGAAUUCUCGGGUGCCAA`: “RBNS enrichment (R)” 0.308.
`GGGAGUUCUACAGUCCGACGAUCUUGAAGAUUUCUGGCUUUUAGGCCUUUUCUAUUUUGUUCCAUUUAUUUUUGCAGGCAAUCUUUUCCAUGGAGGGCAGGGUAUCCAUUCUUUACCAUGGGUGUACCUGCUUUGGAAUUCUCGGGUGCCAA`: “RBNS enrichment (R)” 0.991.

Single results of other studies
The fold induction of `PhoQ, residues 284 288 289 292 302 303 AGGCYF` is reported as 19.3 and 9.1 (PhoP, residues 12 14 15 18 19 LWHCS (Escherichia coli, UniProt P23836); Sort-seq, refers to: YFP reporter; E. coli; PhoQ-PhoP variant library, with: 10 µM Mg2+; relative to: high Mg2+ state, higher = stronger signaling).

Excerpt of the above (series 1):
Under “relative binding score”, `Y115D` is recorded as -15%.
`R69N` — result for “relative binding score”: 98.5%.
